Experimental data from different studies.
Several values in a cell are separate wells, animals, samples, runs or records. ± gives the spread as reported.
CASP9: Caspase-9 (CASP9, Homo sapiens, UniProt P55211)
Chain of UniProt P55211 (whole entry, looked up): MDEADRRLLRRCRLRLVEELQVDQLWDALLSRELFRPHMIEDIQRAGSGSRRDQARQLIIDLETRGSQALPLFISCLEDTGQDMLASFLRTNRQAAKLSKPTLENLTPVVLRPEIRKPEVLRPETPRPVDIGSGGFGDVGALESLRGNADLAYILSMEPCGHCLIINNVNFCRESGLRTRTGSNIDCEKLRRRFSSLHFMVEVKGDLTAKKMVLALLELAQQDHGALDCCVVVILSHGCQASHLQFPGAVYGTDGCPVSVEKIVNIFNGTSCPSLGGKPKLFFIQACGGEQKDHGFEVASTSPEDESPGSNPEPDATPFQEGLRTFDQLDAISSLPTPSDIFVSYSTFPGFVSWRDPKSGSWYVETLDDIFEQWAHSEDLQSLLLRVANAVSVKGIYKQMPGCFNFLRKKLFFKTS
USP5: Ubiquitin carboxyl-terminal hydrolase 5 (USP5, Homo sapiens, UniProt P45974)
Chain of UniProt P45974 (whole entry, looked up): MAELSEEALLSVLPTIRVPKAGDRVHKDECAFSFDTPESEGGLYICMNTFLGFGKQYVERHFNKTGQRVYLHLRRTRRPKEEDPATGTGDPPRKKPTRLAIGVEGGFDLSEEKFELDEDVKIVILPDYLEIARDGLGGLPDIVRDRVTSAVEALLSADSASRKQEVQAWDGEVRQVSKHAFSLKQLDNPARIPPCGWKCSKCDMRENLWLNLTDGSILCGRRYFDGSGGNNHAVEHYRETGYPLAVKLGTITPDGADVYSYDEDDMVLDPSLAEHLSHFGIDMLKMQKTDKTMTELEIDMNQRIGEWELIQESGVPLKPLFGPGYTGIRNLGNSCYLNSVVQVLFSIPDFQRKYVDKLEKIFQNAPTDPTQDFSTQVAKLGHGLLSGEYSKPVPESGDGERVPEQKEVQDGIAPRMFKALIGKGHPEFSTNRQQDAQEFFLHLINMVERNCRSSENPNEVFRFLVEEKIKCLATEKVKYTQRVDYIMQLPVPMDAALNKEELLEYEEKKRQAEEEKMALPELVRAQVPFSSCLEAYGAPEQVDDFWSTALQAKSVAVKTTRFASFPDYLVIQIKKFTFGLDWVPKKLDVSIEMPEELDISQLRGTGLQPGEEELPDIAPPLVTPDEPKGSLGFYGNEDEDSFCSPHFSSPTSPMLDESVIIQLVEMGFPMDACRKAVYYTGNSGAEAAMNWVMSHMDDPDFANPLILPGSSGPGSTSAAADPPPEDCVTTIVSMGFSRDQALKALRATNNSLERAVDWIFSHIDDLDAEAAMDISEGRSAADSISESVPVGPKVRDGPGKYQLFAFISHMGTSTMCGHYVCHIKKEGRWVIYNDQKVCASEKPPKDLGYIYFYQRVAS
Lysophospholipase-like protein 1: Lysophospholipase-like protein 1 (Mus musculus, UniProt Q3UFF7)
Chain of UniProt Q3UFF7 (whole entry, looked up): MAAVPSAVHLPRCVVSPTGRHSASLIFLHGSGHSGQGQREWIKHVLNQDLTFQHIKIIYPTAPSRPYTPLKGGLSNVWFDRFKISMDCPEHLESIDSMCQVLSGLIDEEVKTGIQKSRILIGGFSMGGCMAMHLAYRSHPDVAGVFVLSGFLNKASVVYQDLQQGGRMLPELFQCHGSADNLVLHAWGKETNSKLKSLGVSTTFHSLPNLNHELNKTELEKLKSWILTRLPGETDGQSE
INS: Insulin (INS, Bos taurus, UniProt P01317)
Chain of UniProt P01317 (whole entry, looked up): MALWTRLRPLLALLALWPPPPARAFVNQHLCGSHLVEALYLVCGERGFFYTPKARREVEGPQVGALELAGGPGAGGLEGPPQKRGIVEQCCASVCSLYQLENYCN
CASP4: Caspase-4 (CASP4, Homo sapiens, UniProt P49662)
Chain of UniProt P18669 (whole entry, looked up): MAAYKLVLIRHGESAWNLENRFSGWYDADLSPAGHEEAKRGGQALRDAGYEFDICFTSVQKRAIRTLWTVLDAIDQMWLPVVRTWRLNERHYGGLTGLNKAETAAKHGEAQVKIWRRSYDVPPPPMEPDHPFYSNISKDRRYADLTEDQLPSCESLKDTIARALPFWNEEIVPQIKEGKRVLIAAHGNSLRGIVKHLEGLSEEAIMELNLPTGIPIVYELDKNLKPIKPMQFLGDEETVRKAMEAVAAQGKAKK
Chain of UniProt Q92633 (whole entry, unmodified, looked up): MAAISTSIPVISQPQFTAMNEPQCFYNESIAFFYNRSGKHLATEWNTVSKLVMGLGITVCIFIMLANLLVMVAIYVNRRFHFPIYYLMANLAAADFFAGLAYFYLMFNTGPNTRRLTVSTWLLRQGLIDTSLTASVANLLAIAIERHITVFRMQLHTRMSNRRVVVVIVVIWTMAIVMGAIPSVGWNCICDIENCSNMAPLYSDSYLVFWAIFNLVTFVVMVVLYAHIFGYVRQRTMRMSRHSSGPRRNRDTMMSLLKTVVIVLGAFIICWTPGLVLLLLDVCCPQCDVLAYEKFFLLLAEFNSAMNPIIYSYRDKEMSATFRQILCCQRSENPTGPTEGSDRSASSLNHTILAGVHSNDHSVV
Chain of UniProt P49662 (whole entry, looked up): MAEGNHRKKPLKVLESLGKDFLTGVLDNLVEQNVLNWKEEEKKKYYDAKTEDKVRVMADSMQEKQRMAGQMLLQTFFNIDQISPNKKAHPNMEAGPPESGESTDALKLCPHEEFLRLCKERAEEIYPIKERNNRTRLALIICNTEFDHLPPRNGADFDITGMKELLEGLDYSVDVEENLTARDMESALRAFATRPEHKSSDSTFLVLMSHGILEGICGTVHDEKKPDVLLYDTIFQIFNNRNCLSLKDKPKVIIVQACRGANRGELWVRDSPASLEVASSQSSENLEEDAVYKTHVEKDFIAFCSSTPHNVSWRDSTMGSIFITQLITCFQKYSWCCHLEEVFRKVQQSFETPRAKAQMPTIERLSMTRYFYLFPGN
Chain of UniProt Q13148 (whole entry, looked up): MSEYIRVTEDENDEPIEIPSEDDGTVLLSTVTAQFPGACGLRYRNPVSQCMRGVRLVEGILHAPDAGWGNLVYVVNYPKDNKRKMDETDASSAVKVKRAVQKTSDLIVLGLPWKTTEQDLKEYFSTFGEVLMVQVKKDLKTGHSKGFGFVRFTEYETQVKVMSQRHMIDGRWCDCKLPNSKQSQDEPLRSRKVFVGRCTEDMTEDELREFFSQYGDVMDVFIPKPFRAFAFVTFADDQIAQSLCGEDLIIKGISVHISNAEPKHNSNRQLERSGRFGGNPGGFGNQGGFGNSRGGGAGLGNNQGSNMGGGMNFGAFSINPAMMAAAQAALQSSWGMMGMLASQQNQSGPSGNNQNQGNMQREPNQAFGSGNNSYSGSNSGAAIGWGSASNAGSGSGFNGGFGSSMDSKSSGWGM
Chain of UniProt Q9UBQ7 (whole entry, looked up): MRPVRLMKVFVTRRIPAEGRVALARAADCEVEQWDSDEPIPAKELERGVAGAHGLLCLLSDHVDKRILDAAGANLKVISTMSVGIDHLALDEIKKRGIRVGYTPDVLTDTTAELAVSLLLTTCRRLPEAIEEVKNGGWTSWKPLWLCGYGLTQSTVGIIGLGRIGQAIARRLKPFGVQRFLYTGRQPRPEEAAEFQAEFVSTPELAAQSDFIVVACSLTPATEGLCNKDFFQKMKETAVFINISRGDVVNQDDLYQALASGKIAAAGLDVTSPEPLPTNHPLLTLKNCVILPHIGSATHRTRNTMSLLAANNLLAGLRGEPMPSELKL
Chain of UniProt P62258 (whole entry, unmodified, looked up): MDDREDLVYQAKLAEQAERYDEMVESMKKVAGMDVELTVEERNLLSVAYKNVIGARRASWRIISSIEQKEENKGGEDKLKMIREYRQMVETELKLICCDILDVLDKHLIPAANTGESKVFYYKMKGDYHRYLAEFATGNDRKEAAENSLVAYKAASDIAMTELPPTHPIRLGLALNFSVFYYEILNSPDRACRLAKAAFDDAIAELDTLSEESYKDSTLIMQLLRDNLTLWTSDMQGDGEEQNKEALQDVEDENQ
Chain of UniProt Q9NSD7 (whole entry, unmodified, looked up): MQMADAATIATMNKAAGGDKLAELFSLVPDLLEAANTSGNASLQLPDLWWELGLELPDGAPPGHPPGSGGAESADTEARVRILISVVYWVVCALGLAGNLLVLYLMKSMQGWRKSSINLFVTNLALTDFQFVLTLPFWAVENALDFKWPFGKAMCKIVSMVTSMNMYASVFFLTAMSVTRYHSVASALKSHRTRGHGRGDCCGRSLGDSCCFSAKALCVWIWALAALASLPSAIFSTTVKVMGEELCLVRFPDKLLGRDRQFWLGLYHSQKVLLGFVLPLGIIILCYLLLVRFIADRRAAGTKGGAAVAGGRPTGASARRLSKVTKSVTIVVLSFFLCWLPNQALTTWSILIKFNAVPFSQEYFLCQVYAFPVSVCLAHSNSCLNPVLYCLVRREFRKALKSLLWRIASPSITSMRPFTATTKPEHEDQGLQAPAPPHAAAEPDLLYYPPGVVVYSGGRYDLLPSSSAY
Chain of UniProt Q96IU4 (whole entry, looked up): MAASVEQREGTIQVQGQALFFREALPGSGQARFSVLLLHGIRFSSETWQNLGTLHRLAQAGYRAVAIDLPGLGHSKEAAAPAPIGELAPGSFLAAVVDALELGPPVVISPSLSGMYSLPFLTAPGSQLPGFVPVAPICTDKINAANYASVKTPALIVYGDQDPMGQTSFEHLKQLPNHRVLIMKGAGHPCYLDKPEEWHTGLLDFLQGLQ
Chain of UniProt P35462 (whole entry, looked up): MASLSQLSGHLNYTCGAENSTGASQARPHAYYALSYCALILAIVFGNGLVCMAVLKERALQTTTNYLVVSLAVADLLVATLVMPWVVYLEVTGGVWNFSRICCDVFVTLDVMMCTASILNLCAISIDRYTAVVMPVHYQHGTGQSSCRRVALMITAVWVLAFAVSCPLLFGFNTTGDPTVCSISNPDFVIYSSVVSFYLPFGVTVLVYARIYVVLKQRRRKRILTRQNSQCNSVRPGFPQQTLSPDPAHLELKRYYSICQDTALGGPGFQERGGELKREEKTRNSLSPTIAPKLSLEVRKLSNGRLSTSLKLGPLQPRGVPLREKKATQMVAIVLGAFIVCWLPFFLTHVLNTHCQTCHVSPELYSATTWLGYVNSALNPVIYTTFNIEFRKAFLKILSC

SMILES | target | test | system | conditions | scale | endpoint | result
CC(=O)N[C@H](C(=O)N[C@@H](CCC(=O)O)C(=O)N[C@@H](CO)C(=O)N[C@@H](CC(=O)O)C(=O)COC(=O)c1c(C)cccc1C)[C@@H](C)O | CASP9 | enzyme activity, inhibitor |  |  |  | kinact/KI | 9600 M⁻¹ s⁻¹
O=C1c2ccccc2C2(O)NC(=S)NC12O (stereo not drawn) | USP5 | enzyme activity, inhibitor |  | 17 µM |  | inhibition | 27%
CCN(CC)C(CO)c1cccc2c(C)c(C)oc12 (stereo not drawn) | Lysophosphatidic acid receptor 1 (LPAR1, Homo sapiens, UniProt Q92633, W271A) | G-protein dissociation, agonist, NanoBiT | HEK-293T | 1 µM, W271A mutant | baseline: baseline luminescence | fold change | 0.757 and 0.819 and 0.833 and 0.946 and 0.781
O=C1c2sc(-c3ccc(N4CCC(CO)CC4)nc3F)nc2CCN1c1cccnc1 | TAR DNA-binding protein 43, aggregated (TARDBP, Homo sapiens, UniProt Q13148) | radioligand binding | human, FTLD-TDP type B extract | together with: radioligand 9.68 nM |  | specific binding | 4.01 nM and 2.66 nM
CCCCCC=CC=C1C(=O)C=CC1CC=CCCCC(=O)O (stereo not drawn) | Glyoxylate reductase/hydroxypyruvate reductase (Homo sapiens, UniProt Q9UBQ7) | competitive isoTOP-ABPP, measured: GRHPR cysteine peptide | Ramos soluble proteome | 100 µM, together with: iodoacetamide probe | baseline: DMSO over compound-treated, higher = stronger cysteine blockade | isoTOP-ABPP competition ratio | 1.5
COC(=O)c1cccc(S(=O)(=O)n2nc(SCc3ccc(Cl)cc3)nc2N)c1C | Lysophospholipase-like protein 1 | enzyme activity, activator, gel-based ABPP | purified protein | concentration not given, together with: FP-rhodamine | baseline: DMSO | probe labeling increase | 1.8 fold
C=CC(=O)N1[C@H](c2ccc3c(c2)OCO3)c2[nH]c3ccccc3c2C[C@H]1C(=O)N1CCOCC1 | Hepatocyte nuclear factor 3-alpha (FOXA1, Homo sapiens, UniProt P55317) | DNA binding, NanoBRET |  | 20 µM, 3 h, together with: noncanonical DNA sequences |  | apparent affinity | increased
CC(C)C[C@H](NC(=O)[C@@H](NC(=O)[C@H](Cc1ccccc1)NC(=O)c1ccc(C(C)(C)O)cc1)C(C)C)C(=O)N[C@@H](CCCCN(C)C1CC2CCC1C2)C(=O)N[C@@H](CO)C(N)=O (stereo partly drawn) | Chromobox protein homolog 8 (Homo sapiens, UniProt Q9HC52) | TR-FRET displacement |  |  | baseline: IC50 CBX7 over IC50 CBX8 | selectivity ratio | 20
COc1ccc(NC(=S)Nc2ccc(N3CCOCC3)c3nonc23)cc1OC | USP5 | enzyme activity, inhibitor |  | 17 µM |  | inhibition | 96%
CC[C@H](C)[C@H](NC(=O)[C@H](CC(=O)O)NC(C)=O)C(=O)N[C@H](C(=O)N[C@H](C(=O)N[C@@H](CCCNC(=N)N)C(=O)N[C@@H](Cc1ccc(O)cc1)C(=O)N[C@@H](CC(N)=O)C(=O)NCC(=O)N[C@@H](CCCCN)C(=O)N[C@H](C(=O)N[C@@H](Cc1c[nH]c2ccccc12)C(=O)N[C@@H](Cc1c[nH]c2ccccc12)C(=O)N[C@@H](CCCNC(=N)N)C(=O)O)C(C)C)[C@@H](C)O)[C@@H](C)O | INS | circular dichroism |  | 0 min, initial stage, together with: INS 350 µM |  | β-strand content | 15%
CC(=O)N[C@@H](CO)C(=O)N[C@H](C(=O)N[C@@H](CCC(=O)O)C(=O)N[C@H](C(=O)N[C@@H](CC(=O)O)C(=O)COC(=O)c1c(C)cccc1C)C(C)C)C(C)(C)C | CASP4 | inhibitor |  | recombinant enzyme |  | kobs/[I] | 34800 M⁻¹ s⁻¹
CC(C=CC=C(C)C=CC1=C(C)CCCC1(C)C)=CC=O | Rhodopsin (RHO, Homo sapiens, UniProt P08100, T17M) | ER retention, immunostaining co-localization, measured: opsin with calnexin | COS-7 transfected T17M | 20.00 µM |  | Pearson correlation coefficient | 0.45
CC[C@H](NC(=O)[C@H](CC(C)C)NC(C)=O)C(=O)N[C@@H](CCC1CCCCC1)C(=O)N[C@@H](CC(=O)O)C(=O)COC(=O)c1c(C)cccc1C | CASP4 | enzyme activity, inhibitor |  |  |  | kinact/KI | 12800 M⁻¹ s⁻¹
CC(=O)N[C@@H](CCCNC(=N)N)C(=O)N[C@H](C(=O)N[C@@H](CCCCN)C(=O)N[C@@H](CO)C(=O)N[C@@H](CCCNC(=N)N)C(=O)N[C@H](C(=O)N[C@@H](Cc1c[nH]c2ccccc12)C(=O)N[C@@H](C)C(=O)N[C@@H](C)C(N)=O)[C@@H](C)OP(=O)(O)O)[C@@H](C)O | 14-3-3 protein epsilon (Homo sapiens, UniProt P62258) | thermal stability, DSF |  | 30 µM, pH 7.4 |  | ΔTm | 4.44 °C
CC(=O)N1CCN(c2nc(N)c3c(N)nc4c(c3c2C#N)CC(=O)N4C)CC1 | USP5 | enzyme activity, inhibitor |  | 17 µM |  | inhibition | 3%
Fc1ccc(Nc2nc(NC3CCCCC3)c3cc(C(F)(F)F)ccc3n2)cc1F | Beta-2 adrenergic receptor (ADRB2, Homo sapiens, UniProt P07550, T164V) | β-arrestin2 recruitment, antagonist, BRET |  | mutant T164V | baseline: isoprenaline maximal response | maximal inhibition | 4.9%
CN(C)S(=O)(=O)c1ccc(S(=O)(=O)N2CCC(n3c(=O)[nH]c4ccccc43)CC2)cc1 | mfd, C-terminal domain (Escherichia coli, UniProt P30958) | phosphate release |  | 3.3 µM, 30 min, together with: ATP 0.1514 mM |  | ATPase activity | 2.08 µM phosphate
N#CN1CC[C@H](C(=O)Nc2nc3c(s2)CN(C(=O)Cn2cc(COCCOCCOCCOCCNC(=O)CCCC[C@@H]4SC[C@@H]5NC(=O)N[C@@H]54)nn2)CC3)C1 | Tubulin alpha-1B chain (Homo sapiens, UniProt P68363) | probe binding, affinity probe, neutravidin pull-down LC-MS/MS | HEK293T, cell lysate | 5 µM, 1 h, mean of three replicates, unit not given | higher = more pulled down | iBAQ abundance | 3.04e+08
CC(=O)N[C@H](C(=O)N[C@@H](CCC(=O)O)C(=O)N[C@@H](CCCCN(C)C)C(=O)N[C@@H](CC(=O)O)C(=O)COC(=O)c1c(C)cccc1C)C(C)C | CASP9 | enzyme activity, inhibitor |  |  |  | kinact/KI | 8700 M⁻¹ s⁻¹
N[C@H]1CC[C@H](Nc2nccc(-c3cccnc3Oc3ccc(NC(=O)NC4CC4)c4ccccc34)n2)CC1 | Phosphoglycerate mutase 1 (Homo sapiens, UniProt P18669) | kinobead competition pulldown, measured: PGAM1 | HEK293/HCT116 lysate mixture | 10 µM, 1 h, 4 °C | lower = stronger competition | log2 LFQ intensity | 22.7 and 22.6 and 23.1 and 23.5
CC(=O)N[C@@H](CCCCN)C(=O)N[C@H](C(=O)N[C@@H](Cc1ccc(O)cc1)C(=O)N[C@@H](Cc1ccc(O)cc1)C(=O)N[C@@H](CCCNC(=N)N)C(=O)N[C@@H](Cc1ccc(O)cc1)C(=O)N[C@@H](CC(N)=O)C(=O)NCC(=O)N[C@@H](CCCCN)C(=O)N[C@H](C(=O)N[C@@H](Cc1c[nH]c2ccccc12)C(=O)N[C@@H](Cc1c[nH]c2ccccc12)C(=O)N[C@@H](CCCNC(=N)N)C(=O)O)C(C)C)C(C)C | INS | circular dichroism | insulin-peptide complex | concentration not given, 0 min, 62 °C, before heat incubation, together with: insulin 350 µM |  | random coil content | 33%
CCCCCC(O)/C=C/C=O (stereo not drawn) | Large ribosomal subunit protein eL24 (Homo sapiens, UniProt P83731) | competitive isoTOP-ABPP | Ramos soluble proteome | 100 µM, 60 min, together with: iodoacetamide probe | baseline: DMSO over compound-treated, higher = stronger cysteine blockade | isoTOP-ABPP competition ratio | 1.1
[3H]C([3H])([3H])OC1(C2=NCCN2)COc2ccccc2O1 (stereo not drawn) | Alpha-2C adrenergic receptor (Mus musculus, UniProt Q01337, N33Q) | radioligand binding | HEK293 membranes | α2c(N33Q)-AR mutant |  | Bmax | 0.23 ± 0.06 pmol/mg protein
CC[C@H](C)[C@H](NC(=O)[C@H](Cc1ccccc1)NC(=O)[C@H](CCC(=O)O)NC(=O)[C@H](CCCCN)NC(=O)[C@H](C)NC(=O)[C@H](C)NC(=O)[C@H](CCC(N)=O)NC(=O)CNC(=O)[C@H](CCC(=O)O)NC(=O)[C@H](CC(C)C)NC(=O)[C@H](Cc1ccc(O)cc1)NC(=O)[C@H]1CCC[C@@H]1NC(=O)[C@H](CO)NC(=O)C(C)(C)NC(=O)[C@H](CC(=O)O)NC(=O)[C@H](CO)NC(=O)[C@@H](NC(=O)[C@H](Cc1ccccc1)NC(=O)[C@@H](NC(=O)CNC(=O)[C@H](CCC(=O)O)NC(=O)C(C)(C)NC(=O)[C@@H](N)Cc1c[nH]cn1)[C@@H](C)O)[C@@H](C)O)C(=O)N[C@@H](C)C(=O)N[C@@H](Cc1c[nH]c2ccccc12)C(=O)N[C@@H](CC(C)C)C(=O)N[C@H](C(=O)N[C@@H](CCCCN)C(=O)NCC(=O)N[C@@H](CCCNC(=N)N)C(N)=O)C(C)C | Glucagon-like peptide 1 receptor (GLP1R, Homo sapiens, UniProt P43220) | β-arrestin-1 recruitment, agonist, BRET |  |  | baseline: GLP-1 | efficacy | 29 ± 4%
COc1ccc(/C=C2\S/C(=N/c3ccc(Cl)cc3C(=O)O)NC2=O)cc1 | Dihydroorotate dehydrogenase (quinone), mitochondrial (DHODH, Homo sapiens, UniProt Q02127) | enzyme activity, inhibitor, DCIP reduction |  | 0.5 µM | higher = more activity | reaction rate | -20.6 a.u.
C=CC(=O)N1CCCC(n2c(=O)c3ncccc3n(Cc3ccc(Oc4ccccc4)cc3)c2=O)C1 (stereo not drawn) | Putative protein-lysine deacylase ABHD14B (Homo sapiens, UniProt Q96IU4) | thermal proteome profiling |  | replicate 1 |  | melting temperature | 50.2 °C
CC[C@H](C)[C@@H]1NC(=O)[C@H](Cc2ccccc2)NC(=O)[C@H](CCC(=O)O)NC(=O)[C@H](CCCNC(=N)N)NC(=O)CNC(=O)[C@@H](NC(=O)[C@H](CC(C)C)NC(=O)[C@H](CCCNC(=N)N)NC(=O)[C@@H](NC(=O)CNC(=O)[C@H](Cc2ccc(O)cc2)NC(=O)[C@@H]2CCCN2C(=O)[C@H](C)NC(=O)[C@H](C)NC(=O)[C@@H](N)CCCNC(=N)N)C(C)C)CSSC[C@@H]2NC(=O)[C@@H](NC(=O)[C@H](CO)NC(=O)[C@H](CO)NC(=O)[C@H](CO)NC(=O)[C@H](CC(C)C)NC(=O)CNC(=O)[C@H](C)NC(=O)[C@H](CC(C)C)NC(=O)[C@@H](NC(=O)[C@@H](N)CC(=O)O)C(C)C)CSSC[C@H](NC(=O)CNC(=O)[C@H](Cc3c[nH]c4ccccc34)NC(=O)[C@H](CCCCN)NC2=O)C(=O)N[C@@H](CO)C(=O)N[C@@H](CCCCN)C(=O)N[C@@H](CO)C(=O)N[C@@H](CCC(=O)O)C(=O)N[C@@H]([C@@H](C)CC)C(=O)N[C@@H](CO)C(=O)N[C@@H](CO)C(=O)N[C@@H](CC(C)C)C(=O)N[C@H](C(=O)O)CSSC[C@@H](C(=O)NCC(=O)NCC(=O)N[C@@H](CO)C(=O)N[C@@H](CCCNC(=N)N)C(=O)N[C@@H](Cc2c[nH]c3ccccc23)C(=O)O)NC(=O)[C@H]([C@@H](C)O)NC(=O)[C@H](Cc2ccccc2)NC(=O)[C@H]([C@@H](C)CC)NC(=O)[C@H](C(C)C)NC(=O)[C@H](C)NC(=O)[C@H](CCCNC(=N)N)NC1=O | Relaxin-3 receptor 1 (RXFP3, Homo sapiens, UniProt Q9NSD7, F146A) |  | HEK-293T |  | baseline: wild type | Emax | 60.8 ± 7.65%
Cc1[nH]c(C)c(S(=O)(=O)Nc2cccc(Cl)c2)c1C(=O)N1CCCC1 | D(3) dopamine receptor (DRD3, Homo sapiens, UniProt P35462) | β-arrestin recruitment, agonist, PathHunter |  |  | baseline: dopamine | Imax | 91 ± 5.2%
Nc1nc(SCc2ccc(Cl)cc2)nn1S(=O)(=O)c1ccc2c(c1)CCO2 | Lysophospholipase-like protein 1 | gel-based ABPP | HEK293 overexpressing proteome | 10 µM | baseline: vehicle | FP-rhodamine labelling | 2.5 to 5 fold
COc1ccc(C2(C(=O)N3CCC(Nc4nc5ccccc5c(=O)[nH]4)CC3)CC2)cc1 | MRGPRD (Homo sapiens, UniProt Q8TDS7, F242A) | miniGq recruitment, agonist, BRET | HEK293T | F242A mutant |  | Hill slope | 2.3

Repeated from above:
SMILES | target | test | system | conditions | scale | endpoint | result
N[C@H]1CC[C@H](Nc2nccc(-c3cccnc3Oc3ccc(NC(=O)NC4CC4)c4ccccc34)n2)CC1 | Phosphoglycerate mutase 1 (Homo sapiens, UniProt P18669) | kinobead competition pulldown, measured: PGAM1 | HEK293/HCT116 lysate mixture | 10 µM, 1 h, 4 °C | lower = stronger competition | log2 LFQ intensity | 22.7 and 22.6 and 23.1 and 23.5
C=CC(=O)N1CCCC(n2c(=O)c3ncccc3n(Cc3ccc(Oc4ccccc4)cc3)c2=O)C1 (stereo not drawn) | Putative protein-lysine deacylase ABHD14B (Homo sapiens, UniProt Q96IU4) | thermal proteome profiling |  | replicate 1 |  | melting temperature | 50.2 °C
Nc1nc(SCc2ccc(Cl)cc2)nn1S(=O)(=O)c1ccc2c(c1)CCO2 | Lysophospholipase-like protein 1 | gel-based ABPP | HEK293 overexpressing proteome | 10 µM | baseline: vehicle | FP-rhodamine labelling | 2.5 to 5 fold
CC(=O)N1CCN(c2nc(N)c3c(N)nc4c(c3c2C#N)CC(=O)N4C)CC1 | USP5 | enzyme activity, inhibitor |  | 17 µM |  | inhibition | 3%
